Published values gathered from unrelated publications.
Lines come from different studies, so protocols differ. Several values in a cell are separate wells, animals, samples, runs or records. ± gives the spread as reported.

| Compound | test | system | conditions | how to read | quantity | result |
| --- | --- | --- | --- | --- | --- | --- |
| O=C(O)c1ccc(-c2nc(-c3ccccc3Cl)c3sccn23)cc1 | – | mouse, plasma | oral, dose not given, day 3, no 5-FU | – | plasma concentration | 15.3 ng/mL and 11.2 ng/mL |
| O=C(CN1CCN(CC(=O)NCP(=O)([O-])[O-])CCN(CC(=O)NCP(=O)([O-])[O-])CCN(CC(=O)NCP(=O)([O-])[O-])CC1)NCP(=O)([O-])[O-].[Gd+3] | – | Sprague-Dawley rats, blood | intravenous, 35 µmol/kg, two-compartment model, together with: GdDTPA 68 µmol/kg co-injected | – | elimination half-life | 12.8 min |
| C=Cc1c(C)c2cc3nc(c(CC(=O)[O-])c4[n-]c(cc5nc(cc1[n-]2)C(C)=C5CC)c(C)c4C(=O)[O-])C(CCC(=O)[O-])C3C.[Cu+2].[Na+].[Na+].[Na+] (stereo not drawn) | – | Wistar rat, female | oral, 1000 mg/kg daily, 28 days | – | haemoglobin | 14.6 ± 1.02 g/dL |
| N#[11C]c1ccc(-c2csc(NN=C3CCCC3)n2)cc1 | radio-HPLC | C57BL/6 mouse, heart | intravenous, 37 MBq, 5 min | – | unchanged compound | 52.7% and 53% |
| CC(C)[C@@H]1NC(=O)CNC(=O)[C@H](CC(N)=O)NC(=O)[C@H](CCCNC(=N)N)NC(=O)[C@H](Cc2ccc(O)cc2)NC(=O)[C@H](C(C)C)NC(=O)[C@@H](NC(=O)[C@@H](NC(=O)[C@H](CC(N)=O)NC(=O)[C@H](Cc2c[nH]c3ccccc23)NC(=O)[C@H](C)NC(=O)[C@H](Cc2ccccc2)NC(=O)CNC(=O)[C@H](CCCCN)NC(=O)[C@H](Cc2ccccc2)NC(=O)[C@H](Cc2ccccc2)NC(=O)[C@H](CCCCN)NC(=O)OCC2c3ccccc3-c3ccccc32)C(C)C)CSSC[C@@H](C(=O)N[C@@H](Cc2c[nH]cn2)C(=O)N[C@@H](CCCNC(=N)N)C(=O)N[C@@H](CCCNC(=N)N)C(=O)N[C@@H](C)C(=O)N[C@@H](CC(N)=O)C(N)=O)NC(=O)[C@H](C(C)C)NC(=O)[C@H](CCCNC(=N)N)NC1=O | – | ICR mouse | ip, 10 mg/kg | direction not given | spasm score | 0 |
| CSCC[C@@H]1NC(=O)[C@H](C(C)C)NC(=O)[C@H](CCCNC(=N)N)NC(=O)[C@@H]2CCCN2C(=O)CNC(=O)[C@@H](NC(=O)CNC(=O)[C@H](CO)NC(=O)CNC(=O)[C@H](CO)NC(=S)Nc2ccc(C[C@H]3CN(CC(=O)O)CCN(CC(=O)O)CCN3CC(=O)O)cc2)CSSC[C@@H](C(N)=O)NC(=O)[C@@H]2CCCN2C(=O)CNC(=O)[C@H](CCC(=O)O)NC(=O)[C@H](CC(=O)O)NC(=O)[C@H](CC(=O)O)NC(=O)CNC(=O)[C@H](CC(C)C)NC(=O)[C@H](Cc2c[nH]cn2)NC(=O)[C@H](CC(C)C)NC(=O)CNC(=O)[C@H](Cc2c[nH]cn2)NC1=O [copper-64 labelled] | dynamic PET | CD rat, myocardial infarction, left ventricular blood pool | intravenous, 18.5 MBq | – | blood elimination half-life | 21.9 ± 2.4 min |
| CSCC[C@H](NC(=O)CNC(=O)[C@H](CCCCN)NC(=O)[C@H](CC(C)C)NC(=O)[C@@H]1CCCN1C(=O)[C@H](CO)NC(=O)[C@H](Cc1c[nH]cn1)NC(=O)[C@H](Cc1c[nH]c2ccccc12)NC(=O)[C@H](CCCNC(=N)N)NC(=O)[C@H](CC(C)C)NC(=O)[C@H](CCCNC(=N)N)NC(=O)[C@H](Cc1c[nH]c2ccccc12)NC(=O)[C@H](CS)NC(=O)CCCCCNC(=O)CN1CCN(CC(=O)O)CCN(CC(=O)O)CCN(CC(=O)O)CC1)C(=O)O [copper-64 labelled] | – | C57BL/6J mice, B16-F10 tumour | intravenous, 1.85 MBq, 18 h | reference: tumour over muscle | tumour-to-muscle ratio | 9.94 |
| CC(C)[C@H](NC(=O)[C@H](Cc1c[nH]c2ccccc12)NC(=O)[C@H](CCCNC(=N)N)NC(=O)[C@H](CCCNC(=N)N)NC(=O)[C@@H](NC(=O)[C@@H](NC(=O)[C@H](CCCNC(=N)N)NC(=O)[C@@H](NC(=O)[C@@H](NC(=O)[C@H](CCCNC(=N)N)NC(=O)[C@H](CCCNC(=N)N)NC(=O)[C@@H](NC(=O)[C@H](Cc1c[nH]c2ccccc12)NC(=O)[C@H](CCCNC(=N)N)NC(=O)[C@H](CCCNC(=N)N)NC(=O)[C@@H](NC(=O)[C@H](CCCNC(=N)N)NC(=O)[C@H](CCCNC(=N)N)NC(=O)[C@@H](NC(=O)[C@H](Cc1c[nH]c2ccccc12)NC(=O)[C@H](CCCNC(=N)N)NC(=O)[C@@H](N)CCCNC(=N)N)C(C)C)C(C)C)C(C)C)C(C)C)C(C)C)C(C)C)C(C)C)C(=O)N[C@@H](CCCNC(=N)N)C(=O)N[C@@H](CCCNC(=N)N)C(=O)O | – | mice | intravenous, 15 mg/kg daily, 14 days, 5 doses | – | body weight change | 4.8% |
| CC(C)N1CCCCC1C(=O)NC(Cc1ccc(-c2ccccc2)cc1)B(O)O (stereo not drawn) | – | SCID mouse, P. falciparum model, blood | oral, 25 mg/kg, 24 h | – | blood concentration | < 10 ng/mL |
| CC[C@H](C)[C@H](NC(=O)[C@H](CCCCN)NC(=O)CNC(=O)[C@H](CC(C)C)NC(=O)[C@H](Cc1ccccc1)NC(=O)[C@H](CCCCN)NC(=O)[C@H](CO)NC(=O)[C@H](Cc1ccccc1)NC(=O)[C@H](Cc1c[nH]c2ccccc12)NC(=O)[C@H](CCC(N)=O)NC(=O)[C@@H](NC(=O)[C@H](Cc1ccccc1)NC(=O)CCCCCNC(=O)CN1CCN(CC(=O)O)CCN(CC(=O)O)CCN(CC(=O)O)CC1)C(C)C)C(=O)N[C@@H](CCC(=O)O)C(=O)N1CCC[C@H]1C(=O)N[C@@H](CC(=O)O)C(=O)N[C@H](C(=O)N[C@@H](CO)C(=O)N[C@@H](CCC(N)=O)C(=O)N[C@H](C(=O)N[C@@H](CCC(N)=O)C(=O)N[C@@H](CC(=O)O)C(=O)N1CCC[C@H]1C(=O)N[C@@H](CC(N)=O)C(=O)N[C@@H](CC(=O)O)C(=O)N[C@@H](CCC(N)=O)C(=O)N[C@@H](Cc1ccc(O)cc1)C(=O)N[C@@H](CCC(=O)O)C(=O)N1CCC[C@H]1C(=O)N[C@@H](Cc1ccccc1)C(=O)O)C(C)C)C(C)C [copper-64 labelled] | – | C57BL/6 mice, male, tumour-free, small intestine | 0.5 h | – | tissue uptake | 8.4 ± 0.07 %ID/g |
| COC(=O)c1ccc2c(c1)CCC1C2=NN(c2ccc(C#N)c(Cl)c2)C1C1CCCC1 (stereo not drawn) | – | PBS | 90 min | – | kinetic solubility | < 1 µM |
| Cc1ccccc1-c1ccc(-c2nc(-c3ccc(CN(C)CCCC(=O)O)c([18F])c3)no2)cc1C(F)(F)F | – | rat, muscle | 1 h | – | tracer uptake | 0.08 %ID/g |
| C#Cc1c(F)ccc2cc(O)cc(-c3ncc4c(N5CC6CCC(C5)N6C(=O)OC(C)OC(=O)C(CCCC)CCCC)nc(OC[C@@]56CCCN5C[C@H](F)C6)nc4c3F)c12 (stereo partly drawn) | chemical stability | simulated intestinal fluid | 1 µM, 30 min | – | compound remaining | 95.4% |
| CC(=O)NCCCC[C@@H]1NC(=O)[C@H](Cc2c[nH]c3c(C)cccc23)NC(=O)[C@H]([C@@H](C)O)NC(=O)[C@H](CC(N)=O)NC(=O)[C@@H](NC(C)=O)C(C)(C)SSC(C)(C)[C@@H](C(=O)N[C@@H](Cc2ccc(OCCN)cc2)C(=O)N[C@@H](Cc2ccc3ccccc3c2)C(=O)NC2(C(=O)N[C@@H](CCC(=O)O)C(=O)N[C@@H](CC(N)=O)C(=O)N[C@@H](Cc3cccnc3)C(=O)N(C)CC(N)=O)CCOCC2)NC1=O | equilibrium dialysis | rat, plasma | 0.01 µM | – | plasma protein binding | 50.8 ± 3% |
| COc1cnc2cccc(N3CCc4c(cc(Cn5ccnc5)cc4-c4cn(C)nc4C(F)(F)F)C3=O)c2c1 | – | CD-1 mice | intraperitoneal, 50 mg/kg once daily, day 5 | – | body weight | 30 ± 1 g |
| O=C1NC2(CC2)COc2ncc(F)cc2[C@H]2COCCN2c2ccn3ncc1c3n2 | – | Sprague-Dawley rat, male, blood | oral, 2.5 mg/kg/day, 4 weeks, end of treatment, subacute toxicity | – | haemoglobin | 14.2 ± 0.9 g/dL |
| CC(C)C[C@@H](NC(=O)[C@@H](CCCNC(=N)N)NC(=O)[C@@H](Cc1c[nH]cn1)NC(=O)[C@@H](Cc1c[nH]c2ccccc12)NC(=O)[C@@H](Cc1c[nH]cn1)NC(=O)[C@@H](Cc1ccccc1)NC(=O)[C@H](NC(=O)[C@@H](Cc1ccc(O)cc1)NC(=O)CNC(=O)CNC(=O)CCOCCOCCOCCNC(=O)CN1CCN(CC(=O)O)CCN(CC(=O)O)CC1)[C@H](C)O)C(=O)N[C@H](CC(N)=O)C(=O)N1CCC[C@@H]1C(=O)O [gallium-68 labelled] | – | human male, from C57BL/6 mouse, urinary bladder wall | – | – | absorbed dose | 0.01 ± 5.77e-05 mSv/MBq |
| COc1ccc([C@@H]2CC(=O)c3c(O)cc(O[C@@H]4O[C@H](CO)[C@@H](O)[C@H](O)[C@H]4O[C@@H]4O[C@@H](C)[C@H](O)[C@@H](O)[C@H]4O)cc3O2)cc1O | – | Sprague-Dawley rat, male, lean, faeces | oral, 100 mg/kg, 0-12 h | – | faecal excretion | 581 ± 271 ng |

For quick reference, copied from above:
| Compound | test | system | conditions | how to read | quantity | result |
| --- | --- | --- | --- | --- | --- | --- |
| COC(=O)c1ccc2c(c1)CCC1C2=NN(c2ccc(C#N)c(Cl)c2)C1C1CCCC1 (stereo not drawn) | – | PBS | 90 min | – | kinetic solubility | < 1 µM |
| Cc1ccccc1-c1ccc(-c2nc(-c3ccc(CN(C)CCCC(=O)O)c([18F])c3)no2)cc1C(F)(F)F | – | rat, muscle | 1 h | – | tracer uptake | 0.08 %ID/g |
| C#Cc1c(F)ccc2cc(O)cc(-c3ncc4c(N5CC6CCC(C5)N6C(=O)OC(C)OC(=O)C(CCCC)CCCC)nc(OC[C@@]56CCCN5C[C@H](F)C6)nc4c3F)c12 (stereo partly drawn) | chemical stability | simulated intestinal fluid | 1 µM, 30 min | – | compound remaining | 95.4% |
